Results collected from several papers.
Protocols differ between the studies behind these lines. Several values in a cell are separate wells, animals, samples, runs or records. ± gives the spread as reported.
UCHL1: Ubiquitin carboxyl-terminal hydrolase isozyme L1 (UCHL1, Homo sapiens, UniProt P09936)
Sequence of UniProt P09936 (whole entry, looked up): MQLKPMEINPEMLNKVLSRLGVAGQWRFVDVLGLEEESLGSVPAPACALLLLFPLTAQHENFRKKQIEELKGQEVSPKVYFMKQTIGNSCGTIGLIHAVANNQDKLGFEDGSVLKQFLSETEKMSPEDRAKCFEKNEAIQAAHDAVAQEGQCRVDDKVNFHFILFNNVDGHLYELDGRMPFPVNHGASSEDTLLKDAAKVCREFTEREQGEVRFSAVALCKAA

For CCn1cc(-c2cc(Cn3ccoc3=N)cc3c2CCN([C@@H](C)c2cc(OC)ccn2)C3=O)c(C(F)(F)F)n1, the EC50 was over 30000 nM (KP2; cell growth; 120 h).
Under “pathway activation z-score”, Cn1cc(Nc2nccc(-c3ccc4c(c3)CN(C3COC3)CC[C@H]4NC(=O)c3cn(C(C)(C)C)nn3)n2)cn1 is recorded as 2.33 (mouse splenic B cells; refers to: Netrin signalling; 30 mg/kg, IgD-activated in vivo; relative to: vehicle, direction not given).
Under “cells in S phase”, NC1(c2ccc(-c3nc4ccn5c(=O)[nH]nc5c4cc3-c3ccccc3)cc2)CCC1 is recorded as 18.6% (MDA-MB-468; flow cytometry, PI staining; EC80 concentration, 72 h, DMSO 22.2).
COc1cc(CN(C)CC2CCCN(CCc3ccccc3F)C2)cc(Cl)c1OC (stereo not shown) has an inhibition of 5% (Trypanosoma cruzi; reporter translation, Renilla luciferase mRNA translation; cell-free extract; 40 µM; relative to: DMSO).
C#C[C@@]1(O)[C@@H](CO)O[C@@H](n2cc(F)c3c(N)ncnc32)[C@@H]1O gave a TGI of 1810 nM (Malme-3M; SRB; NCI-60 screen).
Under “TEAD reporter activity”, C=CC(=O)c1cccnc1Nc1cc(NC(C)=O)ccc1OC is recorded as 62.2 ± 1% (MCF7; firefly luciferase reporter; 25 µM, 6 h; relative to: vehicle).
With Cc1c(C(=O)O)ccc2c3n(nc12)[C@@H]1[C@H](C3)N(CC2CC2)[C@@]2(C(=O)Nc3cc(Cl)ccc32)[C@H]1c1cccc(Cl)c1F the IC50 was 0.26 nM (DK-MG; cell proliferation, alamarBlue).
C=C1CC[C@@H]2[C@](C)(CCC[C@]2(C)C(=O)O)[C@H]1CC/C(C)=C/CO — result for calcium signalling: “no effect” (neuroblastoma cells; Fura-2 ratiometric; concentration not given).
O=C(CCl)Nc1ccccc1Sc1ccc(Cl)cc1 has a labelling of 10.2% (UCHL1; covalent, intact protein LC-MS; 12.5 µM).
COc1ccc(-n2nc(C(C)=O)s/c2=N\N=C(/C)c2ccc(NC(=O)c3ccccc3)cc2)cc1 has a toxicity of 97% (HepG2; 5 µM).
For Cc1cc(NC(=O)c2cccc(NC(=O)/C=C/CN(C)C)c2)ccc1Nc1nccc(-c2cccnc2)n1, the reporter activity was 0.95 (HEK293 AP1 reporter cells; AP-1 reporter gene, inhibitor; 3 µM, 6 h, unit not given, with: PMA; relative to: PMA alone).
For CCN(CCO)CCCC(C)Nc1ccnc2cc(Cl)ccc12 (stereo not shown), the inhibition was -7 ± 10% (human PBMC; qRT-PCR, refers to: OASL mRNA; 1000 nM, with: ssRNA).
N#CC(=Cc1cc(F)ccc1F)C(=O)Nc1ccc2c(c1)OCCO2 gave a labelling of 26.3% (UCHL1; covalent, intact protein LC-MS; 12.5 µM).
Cn1cc(-c2ccc(-c3cncc(Cl)c3N3CCC4(CCNC4=O)CC3)cc2)cn1: “fold change in expression” 4.15 (COLO 205; microarray, refers to: FAS; concentration not given, 6 h, gene set FasR(CD95); relative to: untreated cells).
For c1ccc2[nH]ccc2c1, “mRNA level, LS mean” read 5.93 counts per million (HCT-8; RNA-seq, refers to: FLRT3; concentration not given).
C=CCOc1c(C)c(O)c(C(=O)/C=C/c2ccccc2)c(OC)c1C gave a selectivity index of 1.09 (FaDu; SRB; relative to: normal over FaDu IC50).
For Nc1ncnc2c1ncn2[C@@H]1O[C@H](CO)[C@@H](O)[C@H]1O, the basal OCR was 50.4% and 41.1% and 41.8% and 44.7% and 49.6% and 43.7% (activated human T cells; concentration not given, 4 h; relative to: vehicle).
For Cc1cc(-c2ccccc2)n(-c2nc(-c3ccc(Cl)cc3)c3c(NC(=O)c4ccccc4)nnc-3[nH]2)n1, the growth percent was 94.2% (MDA-MB-231/ATCC; NCI60 SRB; 10 µM).
Under binding, CN(CCCN1CCN(C(=O)[C@H](CCCCNC(=O)CC[C@H](C(=O)O)N2CCN(CC(=O)O)CCN(CC(=O)O)CC2)NC(=O)CCOCCOCCOCCOCCN)CC1)c1ccc2nccc(C(=O)NCC(=O)N3CC(F)(F)C[C@H]3C#N)c2c1 is recorded as “no binding” (HT-1080 cells expressing human FAP; flow cytometry; 0.2 µM, epitope accessibility, 200 nM).
For CC/C(=N\NC(=O)C(C)Nc1ccccc1)c1ccc(O)c(C)c1O (stereo not shown), the protein level was 0.31 ± 0.16 (SK-OV-3; Western blot, refers to: phospho-YAP; 10 µM, 3 h, 2D culture, unit not given; relative to: total YAP).
CC(C)(C)C(=O)Oc1ccc(S(=O)(=O)Nc2ccccc2C(=O)NCC(=O)O)cc1 has a neutrophil swelling of 1.44 fold change and 2.1 fold change and 2.48 fold change and 2.45 fold change (human peripheral blood neutrophils; flow cytometry FSC/SSC; 500 µM, with: TNF-α 5 ng/mL, MPO-ANCA immune complex; relative to: unstimulated neutrophils).
CN(C)CCCSc1nc(-c2ccccc2)nc2c1CCC2 gave an inhibition of -3.2% (Trypanosoma cruzi; reporter translation, Renilla luciferase mRNA translation; cell-free extract; 40 µM; relative to: DMSO).
For CN1CC2(NN=C(c3ccccc3)S2)c2ccccc21 (stereo not shown), the viability loss was about 40% (SK-N-BE(2) and SK-N-SH neuroblastoma; MTT; 10 µM, 24 h).
With CCn1cc(-c2cc(Cn3ccnc3)cc3c2CCN([C@H](c2cc(OC)ccn2)C2CC2)C3=O)c(C(F)(F)F)n1 the EC50 was 22200 nM (SK-HEP1; cell growth, inhibitor; 120 h).
For Cc1cc(Nc2ncc(Cl)c(Nc3ccccc3S(=O)(=O)C(C)C)n2)c(OC(C)C)cc1C1CCNCC1, the Emax was 100% (Ba/F3 EML4-ALK variant 1 S1206Y; cell viability).

Excerpt of the above:
N#CC(=Cc1cc(F)ccc1F)C(=O)Nc1ccc2c(c1)OCCO2 gave a labelling of 26.3% (UCHL1; covalent, intact protein LC-MS; 12.5 µM).
Cn1cc(-c2ccc(-c3cncc(Cl)c3N3CCC4(CCNC4=O)CC3)cc2)cn1: “fold change in expression” 4.15 (COLO 205; microarray, refers to: FAS; concentration not given, 6 h, gene set FasR(CD95); relative to: untreated cells).
For c1ccc2[nH]ccc2c1, “mRNA level, LS mean” read 5.93 counts per million (HCT-8; RNA-seq, refers to: FLRT3; concentration not given).
